Results from different studies.
Parts stem from different laboratories: compare values within a part only.

Series 1
Target: RNA binding protein fox-1 homolog 2, RRM domain, GST-SBP tag (RBFOX2, Homo sapiens, UniProt O43251-10, residues 100-194)
Method: RNA Bind-n-Seq
Form: RNA
Sample: in vitro
Concentration: 365 nM
Setting: natural RNA segment, single round, ends assumed
Reference: no-protein control
Direction: higher = stronger binding
Shared flanks, not repeated: GGGAGUUCUACAGUCCGACGAUC … UGGAAUUCUCGGGUGCCAA
Sequence | RBNS enrichment (R)
UUUCAUCUGAGGACUUUCAUCUGUGCAUAUCACGGCCCCCCAGGGCAGUUCCUGCUGGACCAGACUCUCUGGCAGAGGAGGUGGAGUUCUUCCAUGCAGGAGCACGGCAU | 0.393
UACCCUAGUCUCACCAAUCGUGGAUCUAACUUUGCUCCUGAGACUGGACAGACUGCAGGACAAUUCCAGACACGGACAGCAGAGGGUGUGGGUGUCUGGCCACAGUGGCA | 0.597
AAUUUGCCUUUACCUCACCAAAAAUGUCUAGUUUAAUCUUCCUGCCGUGCCCGCUGACUGUCUGGGCAGCCUUGCAGUGGGGGCUGAUGUGCUGUCUUAUUUUUGCUGUC | 0.733
GAGGAUUUUUUUUUCCUUAAGUAAAUCAUUUCAAGUGUAAAAACUAUUUUCUUUUAAUCUGGAUCUUUUGAGGUAAGAAGAUCCACCUUUAGUCAGGGCCACACCUUCUG | 0.537
CUCCUUCUGUCUCGGUUUGUGUCCCUUUCAUUCCCUUUUAGUAUUUGCAAGAGGAAAAUUGUCUGUGUUUUAAUCAGCUAAUGAGGAGGCUAUGGGAUGGACAGAGGGCU | 5.24
AGGCUGAAUGGGAGAGUCCUCCACAACUCCCUGUGUGCCUCAUGGAAAAUAAAGUUUUUUGCACCAUGCUGGUUCUGGACAUUCAGAGCUGUCUCCUGAGUCCUGAGCAG | 0.418
GGUUCAAGGUCUUAUUUAACAAACCAGAAAAAUGCAGGCCAAGCCCUAAUUCAUCAUAUUGGUUUAAGCAUGCUGCCUCCUGAGAGCCACAGUGUCAUAUACAGAUACUU | 0.77
AUUAUGAAUAGUGUUGCACUGUAAUCUAUCAUAUAGAGCUAUAUGUAUGGAAAUUUUUGAUCAGUUUUUUAAGAGAUGUAUCCUGUUUGCAAAGGCACAAUAAAAUUGCA | 6.87
UUACUUAGUAAUCACAGAUUUACCUAAAAUAAAAGGACCCGGGUUGCAGUGAUAUUUAGUUAAUGAUUUGUUUUGGAAAACAUGCAGUUAGGAGUAUUUUUGUAUUUUGU | 0.626
AUGUAAACGCAGCGUGUGCCCACGCUCAGCAGGUGUGCCAUCCUUCCACCUGCUGGGGCACCAUUCUUAGUAUACAGAGGUGGCCUUACACACAUCUUGCAUGGAUGGCA | 1.42
AUCCUGACUCGUGUCUUUUUACCCCCAAGAUAUCUGUCUUCAGUAGCGACUGAAUCUGCCACUCUCAGAAUAAGUUCCUUGCAUUUAUUCCAAAUAAUCUCGUUUACUCU | 0.639
UAGUAUUUUUGUUUCGUUUUGUUUUUAAAUUGGAGCCCCUGGUGAGGUUACAUGUGCCAUGAGAACCCACUCUACACCAUAGUGCUGGUGCCUCAGUGUUGGCCAAACUC | 0.632

Series 2
Target: Interferon regulatory factor 5, full length, phosphomimetic (IRF5, Homo sapiens, UniProt Q13568-2, residues 1-514, S451D/S453D/S456D/S462D)
Method: protein-binding microarray
Form: double-stranded DNA, one strand shown
Sample: in vitro
Concentration: 940 nM top
Setting: 60-bp whole probe
With: salmon DNA 0.4 mg/ml
Reference: random background probes
Direction: higher = stronger binding
Shared flanks, not repeated: GCCTAGCAC … GTCTTGATTCGCTTGACGCTGCTG
Sequence | fitted relative affinity [z-score]
TCAACTTTGGCATGTCTTACTGTGCTA | -0.148
GACCGTTTCGACACTGGGGACGTGCTA | 2.58
TTAGAACTGAGTTTCAATTAGTGCTAG | 1.89
TTAGAAATGGGGACTGGATTAGTGCTA | 0.168
GACGGACTGATTCTCCTGACGTGCTAG | -0.27
TGCTGTGTACATCTCTCTTAGTGCTAG | 0.0393
TCCATTTTGGTTTTCATTATGTGCTAG | 1.75
GACGGGATCGACTTTCGGGACGTGCTA | 0.737
TCAAGTTTTCTTTTCATACTGTGCTAG | 1.33
TTAGGTTTCCTTCTCCTCTAGTGCTAG | 1.85
GACGGTTTCGGTTTCTGGACGTGCTAG | 13.3
TCTGTTGCCCGTATCTAGGTGTGCTAG | -0.0378
TACGGACTGGGGTATCGGGACGTGCTA | 0.528
GCTCTCTTCTGCTTCCTCAGGTGCTAG | 1.36
TCAACTTTCTTTAACTCACTGTGCTAG | 1.33
TTAGGTCTCCTTATCCTTTAGTGCTAG | 0.735
TTAGGTATGGGGTTTCGGTTAGTGCTA | 5.94
CACGGACTGCTTATCCTGACGTGCTAG | -0.5
GACGGGATCCTTTTCCTGACGTGCTAG | -0.307
TCATTTTTAGATTTTTTACTGTGCTAG | 0.643

Series 3
Target: Ras GTPase-activating protein-binding protein 1, C-terminal RGG region (G3BP1, Homo sapiens, UniProt Q13283)
Sequence of UniProt Q13283 (whole entry, looked up): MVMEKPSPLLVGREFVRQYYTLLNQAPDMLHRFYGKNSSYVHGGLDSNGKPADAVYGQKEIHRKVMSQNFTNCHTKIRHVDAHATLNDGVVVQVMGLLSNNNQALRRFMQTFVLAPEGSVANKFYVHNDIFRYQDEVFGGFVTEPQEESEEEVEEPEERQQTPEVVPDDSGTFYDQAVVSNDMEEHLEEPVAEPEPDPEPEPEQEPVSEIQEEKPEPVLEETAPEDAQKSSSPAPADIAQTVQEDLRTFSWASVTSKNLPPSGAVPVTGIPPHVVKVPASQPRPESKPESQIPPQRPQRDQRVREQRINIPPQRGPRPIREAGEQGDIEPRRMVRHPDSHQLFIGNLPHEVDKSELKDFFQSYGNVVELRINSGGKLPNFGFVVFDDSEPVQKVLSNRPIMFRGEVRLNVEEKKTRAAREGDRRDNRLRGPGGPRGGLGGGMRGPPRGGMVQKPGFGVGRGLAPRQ
Method: RNA Bind-n-Seq
Form: RNA
Sample: in vitro
Concentration: 1 µM
Setting: whole 134-nt RNA, ends assumed
With: 150 mM KCl
Reference: input library
Direction: higher = stronger binding
Shared flanks, not repeated: GGGAGUUCUACAGUCCGACGAUC … UGGAAUUCUCGGGUGUCAAGG
Sequence | log2 enrichment
AGUCCUGUGCUACACAUCGUAUGUACCGAAUCGGCCCCGGGGCCCCGGGGCCCCGGGAAAGUAUUAUGUUACGCCGUUCGGAUCUGCACU | -1.69
UUAGAAGAACCCGAAGAACCUAAAGUGCUAACACCAGAAGAACAAUUAGCAGAUAAACUGCGGCUAAAGAAAUUACAGGAAGAGUCAGAC | -0.274
CUGUGCUACACAUCGUAUGUACCGAAUCGGGGCCCCCCCGGCCCCCCCGGGGCCCCCCCGGAAAGUAUUAUGUUACGCCGUUCGGAUCUG | -1.33
UGGCCCUGGUGGCAUGCGGGGAGGAAGAGGUGGCCUCAUGGAUCGUGGUGGUCCCGGUGGAAUCUUCAGAGGUGGCCGUGGUGGAGACAG | 1.86
UUUCUUCUGCUGCUGCUAGUCAUGAGAUCAAGGUGGGUCUGAGAAUGGCCAUUCAGAGGCCCUGGAUAGUAACCAGGUAAUGGAUGACAC | -1.15
UCCUGUGCUACACAUCGUAUGUACCGAAUCGGAAAAAAAGGAAAAAAAGGUUUUUUUGGAAAGUAUUAUGUUACGCCGUUCGGAUCUGCA | -1.28
CUCAAGUCCUGUGCUACACAUCGUAUGUACCGAAUCGGGUGGGAAAGGGAGGGAAAGUAUUAUGUUACGCCGUUCGGAUCUGCACUUCCA | 1.72
CCUGUGCUACACAUCGUAUGUACCGAAUCGGAAAAAAGGGGAAAAAAGGGAAAAAAGGGGAAAGUAUUAUGUUACGCCGUUCGGAUCUGC | -1.43
CAAGUCCUGUGCUACACAUCGUAUGUACCGAAUCGGGGAGGGGUGGGGAAAGGGGAAAGUAUUAUGUUACGCCGUUCGGAUCUGCACUUC | 2.72
UCCUGUGCUACACAUCGUAUGUACCGAAUCGGGUUUUUUUGGGUUUUUGGGUUUUUGGGAAAGUAUUAUGUUACGCCGUUCGGAUCUGCA | -0.208
UGGCCCUGGUGGCAUGCCGGGAGGAAGAGGUGGCCUCAUGGAUCGUGGUGGUCCCGGUGGAAUGUUCAGAGGUGGCCGUGGUGGAGACAG | 1.87
CUCAAGUCCUGUGCUACACAUCGUAUGUACCGAAUCGGGGUUGGUUGGGUUGGGAAAGUAUUAUGUUACGCCGUUCGGAUCUGCACUUCC | 0.262
CUCAAGUCCUGUGCUACACAUCGUAUGUACCGAAUCGGGGUUGGUUGGGUUGGAAAGUAUUAUGUUACGCCGUUCGGAUCUGCACUUCCA | -0.696
ACCAUGCAGGUGGGCAUCUUUGGGAAGUGGGGCAAGGGGGGGAUAGGGAGGGGGGUAACACUUUGGGAACAGGUAGUCCCAGGUCGUUUC | 2.46

Series 4
Target: Sal-like protein 4, full length isoform A (SALL4, Homo sapiens, UniProt Q9UJQ4, residues 1-1053)
Sequence of UniProt Q9UJQ4 (whole entry, looked up): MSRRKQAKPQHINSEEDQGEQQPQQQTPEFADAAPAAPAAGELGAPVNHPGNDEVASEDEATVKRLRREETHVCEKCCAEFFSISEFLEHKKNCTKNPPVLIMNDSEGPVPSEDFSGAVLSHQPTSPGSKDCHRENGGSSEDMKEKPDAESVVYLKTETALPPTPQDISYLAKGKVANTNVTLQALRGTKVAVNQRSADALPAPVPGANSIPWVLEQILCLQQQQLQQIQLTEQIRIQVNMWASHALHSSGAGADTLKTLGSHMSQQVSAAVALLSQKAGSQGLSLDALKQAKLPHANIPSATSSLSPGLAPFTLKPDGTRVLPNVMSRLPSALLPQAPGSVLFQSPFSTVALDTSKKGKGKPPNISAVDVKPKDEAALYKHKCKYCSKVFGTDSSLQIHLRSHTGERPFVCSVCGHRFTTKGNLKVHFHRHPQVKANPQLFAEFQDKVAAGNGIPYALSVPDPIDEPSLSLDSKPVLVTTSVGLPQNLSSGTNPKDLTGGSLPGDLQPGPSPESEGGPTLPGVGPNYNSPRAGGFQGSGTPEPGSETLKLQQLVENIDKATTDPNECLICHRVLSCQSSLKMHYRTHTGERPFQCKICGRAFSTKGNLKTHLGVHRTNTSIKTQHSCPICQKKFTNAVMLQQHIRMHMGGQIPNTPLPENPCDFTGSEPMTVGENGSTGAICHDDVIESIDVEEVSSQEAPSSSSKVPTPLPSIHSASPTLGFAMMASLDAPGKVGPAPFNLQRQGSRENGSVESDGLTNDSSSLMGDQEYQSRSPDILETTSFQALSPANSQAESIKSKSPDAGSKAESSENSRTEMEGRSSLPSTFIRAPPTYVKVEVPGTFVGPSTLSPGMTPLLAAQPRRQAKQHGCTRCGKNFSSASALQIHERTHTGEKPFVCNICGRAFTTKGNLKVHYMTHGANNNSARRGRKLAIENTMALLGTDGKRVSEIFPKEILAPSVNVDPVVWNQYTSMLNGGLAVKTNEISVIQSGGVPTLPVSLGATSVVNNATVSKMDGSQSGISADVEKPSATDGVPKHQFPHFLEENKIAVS
Method: universal PBM
Form: double-stranded DNA, one strand shown
Sample: in vitro
Concentration: 600 nM
Setting: 8-mer, flanks averaged, mean of replicates
Direction: higher = stronger binding
Sequence | E-score
TCACAGAA | 0.133
AAGAGGGA | 0.0708
ACTACGTA | 0.106
ATATAAGC | 0.289
GACGCAGC | -0.311
ACGCACAT | 0.0496
CGTTCCAA | 0.0481
CCCGCTCG | -0.334
ATGCATCC | -0.0786
ACCGGACA | -0.262
ATAAGGAC | 0.0911
CCTCAGTA | -0.0394
AACCATTA | 0.234
CGTAGAAG | 0.0162
CGCGACAG | -0.24
CGTCTCGC | -0.221
AAGGGGGC | -0.27
AGAGGCTG | -0.257
GCATTAAA | 0.275
ATCTTCAG | 0.101

Excerpt of the above (series 1):
Sequence | RBNS enrichment (R)
UAGUAUUUUUGUUUCGUUUUGUUUUUAAAUUGGAGCCCCUGGUGAGGUUACAUGUGCCAUGAGAACCCACUCUACACCAUAGUGCUGGUGCCUCAGUGUUGGCCAAACUC | 0.632
AUGUAAACGCAGCGUGUGCCCACGCUCAGCAGGUGUGCCAUCCUUCCACCUGCUGGGGCACCAUUCUUAGUAUACAGAGGUGGCCUUACACACAUCUUGCAUGGAUGGCA | 1.42
AUUAUGAAUAGUGUUGCACUGUAAUCUAUCAUAUAGAGCUAUAUGUAUGGAAAUUUUUGAUCAGUUUUUUAAGAGAUGUAUCCUGUUUGCAAAGGCACAAUAAAAUUGCA | 6.87
AGGCUGAAUGGGAGAGUCCUCCACAACUCCCUGUGUGCCUCAUGGAAAAUAAAGUUUUUUGCACCAUGCUGGUUCUGGACAUUCAGAGCUGUCUCCUGAGUCCUGAGCAG | 0.418
AAUUUGCCUUUACCUCACCAAAAAUGUCUAGUUUAAUCUUCCUGCCGUGCCCGCUGACUGUCUGGGCAGCCUUGCAGUGGGGGCUGAUGUGCUGUCUUAUUUUUGCUGUC | 0.733
GGUUCAAGGUCUUAUUUAACAAACCAGAAAAAUGCAGGCCAAGCCCUAAUUCAUCAUAUUGGUUUAAGCAUGCUGCCUCCUGAGAGCCACAGUGUCAUAUACAGAUACUU | 0.77
UUUCAUCUGAGGACUUUCAUCUGUGCAUAUCACGGCCCCCCAGGGCAGUUCCUGCUGGACCAGACUCUCUGGCAGAGGAGGUGGAGUUCUUCCAUGCAGGAGCACGGCAU | 0.393
